Assay results gathered from unrelated publications.
Values joined by “and” are separate records of one study, mostly repeats; a detail may differ. Numbers after ± are the reported error.
TDP1: Tyrosyl-DNA phosphodiesterase 1 (TDP1, Homo sapiens, UniProt Q9NUW8)

`COC(=O)[C@@]1(C)C=C(C(=O)Nc2cccc(C(=O)Nc3ccc(Nc4nccc(-c5cccnc5)n4)c(C)c3)c2)C(=O)CC1` — result for “normalized fluorescence polarization”: 0.901 (Mitogen-activated protein kinase 8, docking groove (MAPK8, Homo sapiens, UniProt P45983); peptide binding, inhibitor, fluorescence polarization; 1.562 µM, with: JIP1 peptide probe).
`C#CCCCCNC(=O)c1ccc(N(C(=O)C=C)c2ccc(Br)cc2)cc1` gave a reactivity ratio of 1.83 (SCD (Homo sapiens, UniProt O00767); mass spectrometry profiling; H460 cell lysate; 100 µM over 10 µM, UniProt O00767; reference: high over low concentration).
For `N#Cc1ccc(S(=O)(=O)N2C(=O)CC2c2ccccc2)cc1` (stereo not drawn), IC50 read “inactive” (glpG (Escherichia coli, UniProt P09391); enzyme activity, inhibitor, gel-based chimeric protein substrate).
With `O=C1c2sc(-c3ccc(N4CCC(F)C4)nc3F)nc2CCN1c1cccnc1` (stereo not drawn) the specific binding was 0.025 nM (TAR DNA-binding protein 43, aggregated (TARDBP, Homo sapiens, UniProt Q13148); radioligand binding; control brain sarkosyl-insoluble extract; 9.68 nM).
Under “deactivation time constant”, `O=C(O)Cc1cc2c(cc1C(=O)c1ccccc1)OCO2` is recorded as 2.6 ± 0.1 ms (Gria1 (Rattus norvegicus, UniProt P19490); glutamate-evoked current, whole-cell patch clamp; HEK-293T; concentration not given, weighted tau, 1 ms pulse, with: glutamate).
For `C=CC(=O)Nc1cccc(Cn2ncc3cnc(Nc4cnn(CCOC)c4)nc32)c1`, “percent of control” read 29% (EPHB6 human; binding, KINOMEscan; 100 nM; lower = stronger binding).
Under “isoTOP-ABPP competition ratio”, `CCCCCC=CC=C1C(=O)C=CC1CC=CCCCC(=O)O` (stereo not drawn) is recorded as 2.4 (AH receptor-interacting protein (Homo sapiens, UniProt O00170); competitive isoTOP-ABPP; Ramos soluble proteome; 100 µM, with: iodoacetamide probe; reference: DMSO over compound-treated, higher = stronger cysteine blockade).
`CCCCCCCO[C@H]1CO[C@H](CO)[C@@H](O)[C@H](O)[C@@H]1O` gave a binding stoichiometry of 1.02 ± 0.02 (Type 1 fimbrin D-mannose specific adhesin, lectin domain (fimH, Escherichia coli K-12, UniProt P08191); isothermal titration calorimetry; concentration not given, 15 °C).
`CCCCOc1ccc(C(=O)OCCN2CC=CCC2)cc1` has a basal binding of 1.03 ± 0.03 fold (CHRM3 (Homo sapiens, UniProt P20309); membranes; 10 µM, 15 h, no carbachol; reference: control).
With `Nc1ncc(-c2cc(-c3cnn(CC(F)(F)F)c3)ncc2F)nc1C(=O)NC1CNCC(F)C1` (stereo not drawn) the remaining binding was 66% (NDR2; KINOMEscan; 1 µM; reference: DMSO control).
The inhibition of `Cc1cc(C=NOCc2ccc(-c3nc4cc(-c5ccccc5)ccn4c3Nc3ccc(C(=O)O)cc3)cc2)c(C)n1C1CCCC1` (mixture of isomers) is reported as 42.7% (TDP1; enzyme activity, inhibitor; 100 µM, unpurified compound).
`CN1CCCNC(=O)c2cccc(c2)C(=O)NCCCN(C)CCCNc2cccc3c2C(=O)c2cccc(c2C3=O)NCCC1` — result for “log2 fold change”: 1.24 (SAS; RNA-Seq, refers to: BCDIN3D mRNA; 1 µM, 6 h; reference: untreated cells).
Under “log2 fold change”, `Cc1ncsc1-c1ccc(C(C)NC(=O)C2CC(O)CN2C(=O)C(NC(=O)CCCCCCCCCCN2CCCC(Nc3ncc(Cl)c(Nc4ccccc4S(=O)(=O)C(C)C)n3)C2)C(C)(C)C)cc1` (stereo not drawn) is recorded as -1.44 (22Rv1; RNA-seq, refers to: TRIM65 mRNA; concentration not given; reference: DMSO).
The kinact/KI of `CC[C@H](NC(=O)[C@@H](NC(=O)[C@H](CC(=O)O)NC(C)=O)[C@@H](C)O)C(=O)N[C@@H](CC(=O)O)C(=O)COC(=O)c1c(C)cccc1C` is reported as 31500 M⁻¹ s⁻¹ (Caspase-6 (CASP6, Homo sapiens, UniProt P55212); enzyme activity, inhibitor).
With `CC(C)[C@@H]1NC(=O)[C@H](Cc2ccccc2)NC(=O)CSC[C@@H](C(N)=O)NC(=O)[C@H](CCC(=O)O)NC(=O)[C@H](CO)NC(=O)[C@H](Cc2c[nH]c3cccc(Cl)c23)NC(=O)[C@H](C2CCCCC2)NC(=O)[C@H](C(C)C)NC(=O)[C@H](Cc2ccc(O)cc2)NC(=O)[C@H](CC(=O)O)NC(=O)[C@H](Cc2c[nH]c3ccccc23)NC(=O)[C@H](Cc2ccc(N)nc2)NC(=O)[C@H](Cc2c[nH]c3ccc(Cl)cc23)NC(=O)[C@H](CCC(=O)O)NC1=O` the remaining activity was 66.6% (Interleukin-1 receptor-like 2 (IL1RL2, Homo sapiens, UniProt Q9HB29); reporter gene (SEAP), inhibitor, HEK-Blue IL-36R reporter; HEK-Blue IL-36R cells; 1.23 µM, 6 h, with: IL-36β 1 ng/mL).
With `CC[C@H](C)[C@@H]1NC(=O)[C@H](Cc2ccccc2)NC(=O)[C@H](CCC(=O)O)NC(=O)[C@H](CCCNC(=N)N)NC(=O)CNC(=O)[C@@H](NC(=O)[C@H](CC(C)C)NC(=O)[C@H](CCCNC(=N)N)NC(=O)[C@@H](NC(=O)CNC(=O)[C@H](Cc2ccc(O)cc2)NC(=O)[C@@H]2CCCN2C(=O)[C@H](C)NC(=O)[C@H](C)NC(=O)[C@@H](N)CCCNC(=N)N)C(C)C)CSSC[C@@H]2NC(=O)[C@@H](NC(=O)[C@H](CO)NC(=O)[C@H](CO)NC(=O)[C@H](CO)NC(=O)[C@H](CC(C)C)NC(=O)CNC(=O)[C@H](C)NC(=O)[C@H](CC(C)C)NC(=O)[C@@H](NC(=O)[C@@H](N)CC(=O)O)C(C)C)CSSC[C@H](NC(=O)CNC(=O)[C@H](Cc3c[nH]c4ccccc34)NC(=O)[C@H](CCCCN)NC2=O)C(=O)N[C@@H](CO)C(=O)N[C@@H](CCCCN)C(=O)N[C@@H](CO)C(=O)N[C@@H](CCC(=O)O)C(=O)N[C@@H]([C@@H](C)CC)C(=O)N[C@@H](CO)C(=O)N[C@@H](CO)C(=O)N[C@@H](CC(C)C)C(=O)N[C@H](C(=O)O)CSSC[C@@H](C(=O)NCC(=O)NCC(=O)N[C@@H](CO)C(=O)N[C@@H](CCCNC(=N)N)C(=O)N[C@@H](Cc2c[nH]c3ccccc23)C(=O)O)NC(=O)[C@H]([C@@H](C)O)NC(=O)[C@H](Cc2ccccc2)NC(=O)[C@H]([C@@H](C)CC)NC(=O)[C@H](C(C)C)NC(=O)[C@H](C)NC(=O)[C@H](CCCNC(=N)N)NC1=O` the ΔpEC50 was -0.831 and -0.794 and -1.56 (RXFP4 (Homo sapiens, UniProt Q8TDU9, F105A); F105A mutant, unit not given; reference: wild type).
The AUC(0-t) of `C=C(NC(=O)c1csc(-c2nc3c(cc2O)-c2nc(cs2)C(=O)NC(C(C)O)C(=O)NC(=C(C)OC)c2nc(cs2)C(=O)NC2c4nc(cs4)C(=O)NC(COC(=O)c4c5c6c(cccc6n4O)COC(=O)C(OC4CC(C)(O)C(N(C)C)C(C)O4)C2OC5)c2nc-3cs2)n1)C(N)=O` (stereo not drawn) is reported as 1240 ng·h/mL (ICR mice, Streptococcus pneumoniae ATCC 49169 infected, immunocompromised, blood; intravenous, 16 mg/kg/day twice daily).
`N=C(N)NCCS(=O)(=O)O` has a fraction bound of 0 (SLC6A6 (Homo sapiens, UniProt P31641, Y138A); binding, microscale thermophoresis; 46 nM, fitted curve; higher = more binding).
The inhibition of `CN(C)c1nc(Cl)c(C=NOCc2ccc(-c3nc4cc(-c5ccccc5)ccn4c3Nc3ccc(C(=O)O)cc3)cc2)s1` (mixture of isomers) is reported as 65.6% (TDP1; enzyme activity, inhibitor; 100 µM, unpurified compound).
`CC(C)C[C@@H]1NC(=O)[C@H](Cc2ccccc2)NC(=O)CSC[C@@H](C(=O)NCC(N)=O)NC(=O)[C@H](C(C)C)NC(=O)[C@H](Cc2ccccc2)NC(=O)[C@H](Cc2ccc(O)cc2)NC(=O)[C@H](C(C)C)NC(=O)[C@H](CC(=O)O)NC(=O)[C@H](Cc2ccccc2)NC(=O)[C@H](CCCNC(=N)N)NC(=O)[C@H](Cc2ccccc2)N(C)C(=O)[C@H](C)NC(=O)[C@H](Cc2ccccc2)NC(=O)[C@H](C(C)C)NC1=O` has a ΔTm of -1.03 °C (Bromodomain-containing protein 4, BD1 (BRD4, Homo sapiens, UniProt O60885); thermal stability, DSF; 50 µM).
The residence time of `CN1CCC[C@@H]1C(=O)N[C@@H](Cc1ccc(-c2ccccc2)cc1)B(O)O` is reported as 18 min (Proteasome component C5/PSMB5 (Homo sapiens, UniProt P20618+P28074); progress curve).
The bias factor of `Clc1ccc(Nc2nc(NC3CCCCC3)c3ccccc3n2)cc1` is reported as over 50 fold (ADRB2 (Homo sapiens, UniProt P07550); β-arrestin2 recruitment, PathHunter and GloSensor; reference: GloSensor IC50 over PathHunter IC50).
With `O=C1c2sc(-c3ccc(N4CCC(CO)CC4)nc3F)nc2CCN1c1cccnc1` the inhibition was 5% (OPRK1 (Homo sapiens, UniProt P41145); ligand displacement, radioligand; 1 µM).
For `Cc1cccc2c1NC(=O)C2(O)CC(=O)c1ccc2c(c1)OCO2` (stereo not drawn), the Hill slope was -19.9 (ppa (Escherichia coli, UniProt P0A7A9); enzyme activity; counter-screen).
`Cn1cc(-c2cc(N3CCCCS3(=O)=O)ccc2N[C@H]2CC[C@H](C)CC2)c2cc[nH]c2c1=O` (stereo in doubt) has a remaining binding of 97% (Protein polybromo-1, bromodomain 2 (PBRM1, Homo sapiens, UniProt Q86U86); bromodomain binding screen; 1 µM; lower is stronger binding).
For `O=C(O)c1ccc(Nc2c(-c3ccccc3)nc3ccc(CON=Cc4cc(O)ccc4O)cn23)cc1`, the inhibition was 61.2% (TDP1; enzyme activity, inhibitor; 100 µM, unpurified compound).
`O=C(NC[C@@H](Cc1ccc(F)cc1)N1CCC(O)(C(F)(F)F)CC1)C1(c2ccc(Cl)cc2)CCCC1` — result for “EC50 fold change”: 2.7 (TRPA1 (Homo sapiens, UniProt O75762, F938A); calcium influx, agonist; reference: F938A mutant over wild type).
`Cc1ccc2nc(Cl)c(C=NOCc3ccc(-c4nc5cc(-c6ccccc6)ccn5c4Nc4ccc(C(=O)O)cc4)cc3)cc2c1` gave an inhibition of 79.6% (TDP1; enzyme activity, inhibitor; 100 µM, unpurified compound).
For `O=[N+]([O-])c1cc(Br)cc([N+](=O)[O-])c1NS(=O)(=O)c1ccc(Br)cc1`, the phosphatase activity was 0.21 a.u. and 0.216 a.u. and 0.224 a.u. (HAB1 (Arabidopsis thaliana, UniProt Q9CAJ0); inhibitor; 1000 µM, no PYL receptor; higher = more activity).
The IC50 of `Cc1nn(-c2cccc(N)c2)c(=O)c2cnc(Nc3ccc(N4CCNCC4)cc3)nc12` is reported as over 10000 nM (SRPK2 (Homo sapiens, UniProt P78362); kinase activity, inhibitor, SelectScreen kinase profiling).
`N#CC(C=NOCc1ccc2nc(-c3ccccc3)c(Nc3ccc(C(=O)O)cc3)n2c1)c1nc2ccccc2o1` (stereo not drawn) gave an inhibition of -13.1% (TDP1; enzyme activity, inhibitor; 100 µM, unpurified compound).
With `COc1c(Cl)cccc1Nc1c(-c2ccncc2C#C[C@@]2(C)CCCN2C(=O)/C=C/CN(C)C)[nH]c2c1C(=O)NCC2` the remaining binding was 99% (FLT3 ITD, human; KINOMEscan competition binding; 3 µM; reference: control).
`COc1cc([N+](=O)[O-])ccc1C=NOCc1ccc2nc(-c3ccccc3)c(Nc3ccc(C(=O)O)cc3)n2c1` (mixture of isomers) gave an inhibition of 64.4% (TDP1; enzyme activity, inhibitor; 100 µM, unpurified compound).
`CNS(=O)(=O)Nc1nccc(Cc2c(C)c3ccc(Oc4ncccc4F)cc3oc2=O)c1F` gave an IC50 of 268 nM (NCI-H1869; cell viability, CellTiter-Glo; 7 days).
The inhibition of `CC(=NOCc1ccc2nc(-c3ccccc3)c(Nc3ccc(C(=O)O)cc3)n2c1)c1ccccc1O` is reported as 3.2% (TDP1; enzyme activity, inhibitor; 100 µM, unpurified compound).
`COC1CN([C@H]2CC[C@H]([C@@]3(C)Oc4c(Cl)cc(C(=O)NCc5c(SC)cc(C)[nH]c5=O)c(C)c4O3)CC2)C1`: “log2 fold change” 0.74 (RNA-seq, refers to: PHLPP1 mouse homolog; mouse, HT-1376 xenograft, whole blood; dose not given; reference: vehicle).

Some of these lines once more:
`CCCCOc1ccc(C(=O)OCCN2CC=CCC2)cc1` has a basal binding of 1.03 ± 0.03 fold (CHRM3 (Homo sapiens, UniProt P20309); membranes; 10 µM, 15 h, no carbachol; reference: control).
With `Nc1ncc(-c2cc(-c3cnn(CC(F)(F)F)c3)ncc2F)nc1C(=O)NC1CNCC(F)C1` (stereo not drawn) the remaining binding was 66% (NDR2; KINOMEscan; 1 µM; reference: DMSO control).
The inhibition of `Cc1cc(C=NOCc2ccc(-c3nc4cc(-c5ccccc5)ccn4c3Nc3ccc(C(=O)O)cc3)cc2)c(C)n1C1CCCC1` (mixture of isomers) is reported as 42.7% (TDP1; enzyme activity, inhibitor; 100 µM, unpurified compound).
